Experimental data of several laboratories.
Each line is one published result; not all experiments were run side by side. “And” joins repeats or separate records; there may be more than shown. ± gives the spread as reported.
HSP90AB1: Heat shock protein HSP 90-beta (HSP90AB1, Homo sapiens, UniProt P08238)
UniProt P08238, sequence (whole entry, looked up): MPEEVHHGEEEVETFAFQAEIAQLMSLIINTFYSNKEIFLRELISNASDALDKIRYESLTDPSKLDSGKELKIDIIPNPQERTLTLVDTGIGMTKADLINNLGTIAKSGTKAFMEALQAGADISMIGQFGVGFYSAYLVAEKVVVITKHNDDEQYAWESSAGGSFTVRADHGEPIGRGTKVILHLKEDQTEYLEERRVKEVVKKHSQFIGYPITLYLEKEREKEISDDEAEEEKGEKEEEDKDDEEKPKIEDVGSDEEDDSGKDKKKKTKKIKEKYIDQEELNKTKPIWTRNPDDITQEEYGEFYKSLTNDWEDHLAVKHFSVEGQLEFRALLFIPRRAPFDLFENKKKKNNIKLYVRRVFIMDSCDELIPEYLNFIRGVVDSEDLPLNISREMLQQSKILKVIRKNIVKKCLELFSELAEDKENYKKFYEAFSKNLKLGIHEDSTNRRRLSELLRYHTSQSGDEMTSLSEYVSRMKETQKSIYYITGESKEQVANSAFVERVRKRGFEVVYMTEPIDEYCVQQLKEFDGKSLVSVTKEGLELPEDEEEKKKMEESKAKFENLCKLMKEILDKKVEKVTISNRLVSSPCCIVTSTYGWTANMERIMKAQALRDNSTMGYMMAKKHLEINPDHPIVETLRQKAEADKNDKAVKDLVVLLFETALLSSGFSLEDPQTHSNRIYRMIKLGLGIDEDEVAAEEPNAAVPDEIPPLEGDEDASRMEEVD
UniProt Q9NNX6, sequence (whole entry, looked up): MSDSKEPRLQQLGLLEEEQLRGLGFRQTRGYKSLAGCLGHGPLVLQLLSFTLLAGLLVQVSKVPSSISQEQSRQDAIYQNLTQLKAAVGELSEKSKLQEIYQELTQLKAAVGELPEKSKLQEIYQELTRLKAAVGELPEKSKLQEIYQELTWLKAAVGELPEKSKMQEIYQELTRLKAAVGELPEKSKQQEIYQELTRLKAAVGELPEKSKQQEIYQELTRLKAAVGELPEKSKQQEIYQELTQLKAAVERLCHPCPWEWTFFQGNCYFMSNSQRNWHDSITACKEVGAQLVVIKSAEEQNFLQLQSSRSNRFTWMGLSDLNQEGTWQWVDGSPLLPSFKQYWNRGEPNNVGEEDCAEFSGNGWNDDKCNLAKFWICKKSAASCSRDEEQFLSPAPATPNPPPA
UniProt Q9UNU6, sequence (whole entry, unmodified, looked up): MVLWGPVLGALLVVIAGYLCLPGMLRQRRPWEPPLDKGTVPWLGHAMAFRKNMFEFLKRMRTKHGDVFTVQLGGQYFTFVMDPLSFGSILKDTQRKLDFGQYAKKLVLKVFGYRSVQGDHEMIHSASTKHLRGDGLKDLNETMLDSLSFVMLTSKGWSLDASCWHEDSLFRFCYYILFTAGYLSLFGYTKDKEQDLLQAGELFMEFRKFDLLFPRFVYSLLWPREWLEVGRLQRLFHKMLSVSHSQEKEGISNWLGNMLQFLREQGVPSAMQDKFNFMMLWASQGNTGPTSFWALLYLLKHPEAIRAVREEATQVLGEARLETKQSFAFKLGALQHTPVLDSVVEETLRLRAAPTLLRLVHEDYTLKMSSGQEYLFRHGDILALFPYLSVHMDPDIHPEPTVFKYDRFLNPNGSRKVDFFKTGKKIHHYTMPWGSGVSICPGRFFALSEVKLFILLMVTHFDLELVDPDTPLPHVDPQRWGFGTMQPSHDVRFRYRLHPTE
UniProt Q96NY8, sequence (whole entry, looked up): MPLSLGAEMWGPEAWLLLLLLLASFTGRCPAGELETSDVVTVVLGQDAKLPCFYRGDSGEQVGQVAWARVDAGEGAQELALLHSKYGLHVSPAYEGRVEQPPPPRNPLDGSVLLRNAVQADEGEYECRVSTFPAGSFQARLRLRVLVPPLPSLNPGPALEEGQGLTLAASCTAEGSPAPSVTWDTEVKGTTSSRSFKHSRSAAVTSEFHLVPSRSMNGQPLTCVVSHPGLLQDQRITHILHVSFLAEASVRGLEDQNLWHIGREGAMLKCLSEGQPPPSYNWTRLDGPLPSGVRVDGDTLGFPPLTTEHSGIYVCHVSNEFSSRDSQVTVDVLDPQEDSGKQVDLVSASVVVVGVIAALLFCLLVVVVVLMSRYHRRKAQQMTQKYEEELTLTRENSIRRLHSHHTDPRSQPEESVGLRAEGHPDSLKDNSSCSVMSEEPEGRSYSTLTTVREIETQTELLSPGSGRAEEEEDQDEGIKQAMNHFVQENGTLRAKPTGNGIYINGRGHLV
UniProt Q99683, sequence (whole entry, looked up): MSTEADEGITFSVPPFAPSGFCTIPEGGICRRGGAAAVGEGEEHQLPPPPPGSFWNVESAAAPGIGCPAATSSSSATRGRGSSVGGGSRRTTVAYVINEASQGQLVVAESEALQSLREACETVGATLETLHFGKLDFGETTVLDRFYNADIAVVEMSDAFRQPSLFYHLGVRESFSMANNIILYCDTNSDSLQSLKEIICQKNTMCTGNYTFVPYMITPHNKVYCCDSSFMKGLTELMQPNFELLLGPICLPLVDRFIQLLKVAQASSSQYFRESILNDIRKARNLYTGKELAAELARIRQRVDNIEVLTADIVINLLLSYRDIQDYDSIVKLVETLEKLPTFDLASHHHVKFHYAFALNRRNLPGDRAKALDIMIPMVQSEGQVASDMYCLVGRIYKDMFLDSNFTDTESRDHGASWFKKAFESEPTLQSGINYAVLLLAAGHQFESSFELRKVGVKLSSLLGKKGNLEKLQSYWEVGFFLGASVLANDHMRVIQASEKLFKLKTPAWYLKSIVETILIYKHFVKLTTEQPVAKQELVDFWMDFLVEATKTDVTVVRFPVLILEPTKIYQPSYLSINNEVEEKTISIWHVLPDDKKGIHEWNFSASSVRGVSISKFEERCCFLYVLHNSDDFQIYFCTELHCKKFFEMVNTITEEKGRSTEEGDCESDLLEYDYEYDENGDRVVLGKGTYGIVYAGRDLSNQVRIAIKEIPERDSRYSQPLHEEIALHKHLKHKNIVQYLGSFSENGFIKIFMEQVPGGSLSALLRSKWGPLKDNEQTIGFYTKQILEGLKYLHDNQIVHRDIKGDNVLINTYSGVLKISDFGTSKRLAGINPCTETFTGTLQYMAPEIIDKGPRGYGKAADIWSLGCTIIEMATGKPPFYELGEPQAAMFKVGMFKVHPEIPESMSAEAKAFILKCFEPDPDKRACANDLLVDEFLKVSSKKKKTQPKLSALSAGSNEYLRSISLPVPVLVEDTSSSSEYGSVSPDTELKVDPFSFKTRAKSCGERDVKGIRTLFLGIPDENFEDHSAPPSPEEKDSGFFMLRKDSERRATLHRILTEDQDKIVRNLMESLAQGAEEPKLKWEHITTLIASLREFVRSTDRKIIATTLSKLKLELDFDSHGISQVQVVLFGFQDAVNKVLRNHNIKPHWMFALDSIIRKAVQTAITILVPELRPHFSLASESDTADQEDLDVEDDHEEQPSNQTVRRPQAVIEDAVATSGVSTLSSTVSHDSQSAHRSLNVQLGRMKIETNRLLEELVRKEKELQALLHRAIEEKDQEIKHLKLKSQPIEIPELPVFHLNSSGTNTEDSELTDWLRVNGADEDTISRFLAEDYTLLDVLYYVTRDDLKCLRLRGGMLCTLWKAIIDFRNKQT
UniProt Q9HB29, sequence (whole entry, looked up): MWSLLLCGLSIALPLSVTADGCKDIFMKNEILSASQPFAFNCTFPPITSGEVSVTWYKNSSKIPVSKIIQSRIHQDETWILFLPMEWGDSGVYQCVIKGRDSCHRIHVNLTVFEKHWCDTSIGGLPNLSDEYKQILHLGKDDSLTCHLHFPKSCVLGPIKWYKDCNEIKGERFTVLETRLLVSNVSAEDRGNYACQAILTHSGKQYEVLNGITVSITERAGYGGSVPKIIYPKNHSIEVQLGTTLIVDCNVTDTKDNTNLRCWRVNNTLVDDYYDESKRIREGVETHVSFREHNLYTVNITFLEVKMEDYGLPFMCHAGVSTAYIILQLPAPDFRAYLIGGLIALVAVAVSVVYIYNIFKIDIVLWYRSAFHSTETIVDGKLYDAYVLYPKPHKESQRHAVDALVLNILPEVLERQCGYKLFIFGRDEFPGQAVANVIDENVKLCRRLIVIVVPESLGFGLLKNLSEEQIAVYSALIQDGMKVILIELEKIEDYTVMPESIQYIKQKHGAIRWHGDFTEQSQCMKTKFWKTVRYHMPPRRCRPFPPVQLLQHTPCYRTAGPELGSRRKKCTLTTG
UniProt O75791, sequence (whole entry, looked up): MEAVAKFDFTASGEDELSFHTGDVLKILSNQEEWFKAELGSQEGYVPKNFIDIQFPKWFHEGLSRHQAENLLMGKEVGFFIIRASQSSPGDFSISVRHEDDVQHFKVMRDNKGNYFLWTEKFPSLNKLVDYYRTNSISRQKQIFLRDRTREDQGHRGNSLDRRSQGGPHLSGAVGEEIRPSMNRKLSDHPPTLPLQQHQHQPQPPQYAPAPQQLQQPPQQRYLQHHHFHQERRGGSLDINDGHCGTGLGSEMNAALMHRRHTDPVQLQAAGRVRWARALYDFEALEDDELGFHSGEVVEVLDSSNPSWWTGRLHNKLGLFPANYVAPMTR

O=C1NC2(CC2)COc2ncc(F)cc2[C@H]2COCCN2c2ccn3ncc1c3n2 has a serum urea of 2.99 ± 0.82 mmol/L (Sprague-Dawley rat, female, serum; oral, 5 mg/kg/day, end of recovery, 4-week subacute toxicity).
With C=C1NC(=O)c2csc(n2)[C@H]([C@@H](C)O)NC(=O)[C@H](C)NC(=O)[C@H]([C@@H](C)CC)NC(=O)[C@H](CCCNC(=N)N)NC(=O)CNC(=O)[C@H](CCCNC(=N)N)NC(=O)[C@H]([C@@H](C)O)NC(=O)[C@H](CCCNC(=N)N)NC(=O)[C@H]([C@@H](C)CC)NC(=O)[C@H]([C@@H](C)O)NC(=O)[C@H](Cc2c[nH]c3ccccc23)NC(=O)c2ccc(-c3nc(C(=O)OC)cs3)nc2-c2csc1n2 the Kd was 1.24 nM (TNIK (Homo sapiens, UniProt Q9UKE5); binding, SPR).
The Kd of Nc1ncnc2c1ncn2[C@@H]1O[C@H](C[C@@H](N)CC[C@H](N)C(=O)O)[C@@H](O)[C@H]1O is reported as 884 ± 61.6 nM (O-methyltransferase (Sorghum bicolor, UniProt A0A1B6PFV1, W279A); isothermal titration calorimetry; APO).
With CCCc1cc2cc(-n3nc(CO)c4c3CC(C)(C)CC4=O)cc(N3CCC(O)CC3)c2c(=O)[nH]1 the Kd was 4900 nM (HSP90AB1; fluorescence polarization; 24 h, 4 °C, with: FITC-geldanamycin tracer).
N=C(N)NCc1cn([C@@H]2[C@@H](OCCn3cc(COCCOCCOCCn4cc(-c5cc(OCCOCCO)c(C#Cc6cc(OCCOCCO)c(C#Cc7cc(OCCOCCO)c(-c8cn(CCOCCOCCOCc9cn(CCO[C@H]%10O[C@H](CO)[C@@H](O)[C@H](O)[C@@H]%10n%10cc(CNC(=N)N)nn%10)nn9)nn8)cc7OCCOCCO)cc6OCCOCCO)cc5OCCOCCO)nn4)nn3)O[C@H](CO)[C@@H](O)[C@@H]2O)nn1 has a Kd of 20900 nM and 38800 nM (CD209 antigen (CD209, Homo sapiens, UniProt Q9NNX6); binding).
The inhibition of CN(C)[C@H]1C[C@@]23CC[C@@]4(O2)C(=CC[C@]2(C)[C@@H](c5ccc6ccncc6c5)CC[C@H]24)C=C3[C@@H](O)[C@@H]1O is reported as 18.5% (MAP3K5 (Homo sapiens, UniProt Q99683); ATP probe labelling, inhibitor, KiNativ profiling; 1 µM).
COc1ccccc1-c1n[nH]c2nc(NC3CCN(C(=O)Cc4ccc(F)cc4F)CC3)ncc12 gave a relative abundance of 0.93 (bead binding, competition bead pull-down, refers to: LINJ.30.3480; Leishmania donovani extract; 10 µM; reference: vehicle).
With CC(C)[C@@H]1NC(=O)[C@H](Cc2ccccc2)NC(=O)CSC[C@@H](C(N)=O)NC(=O)[C@H](CCC(=O)O)NC(=O)[C@H](CO)NC(=O)[C@H](Cc2c[nH]c3ccccc23)NC(=O)[C@H](C(C)C)NC(=O)[C@H](C(C)C)NC(=O)[C@H](Cc2ccc(O)cc2)NC(=O)[C@H](CC(=O)O)NC(=O)[C@H](Cc2c[nH]c3ccccc23)NC(=O)[C@H](Cc2ccc(O)cc2)NC(=O)[C@H](Cc2c[nH]c3ccc(Cl)cc23)NC(=O)[C@H](CCC(=O)O)NC1=O the Kd was 277 ± 6 nM (Interleukin-1 receptor-like 2, D1-D2 domains (IL1RL2, Homo sapiens, UniProt Q9HB29); SPR; IL-36R domains D1-D2).
For C[C@]12C(c3cccnc3)=C[C@H]3[C@@H](CCC4=C[C@H](O)CC[C@@]43C)[C@@H]1CC[C@@H]2O, the Kd was 6750 nM (7-alpha-hydroxycholest-4-en-3-one 12-alpha-hydroxylase (Homo sapiens, UniProt Q9UNU6, W281F); binding, spectral titration).
CC[C@H](C)[C@H](NC(=O)[C@H](CC(=O)O)NC(=O)[C@H](CCCNC(=N)N)NC(=O)[C@H](C)NC(=O)c1ccc2c(c1)C(=O)OC21c2ccc(N(C)C)cc2Oc2cc(N(C)C)ccc21)C(=O)N[C@@H](Cc1c[nH]cn1)C(=O)N[C@@H](Cc1c[nH]cn1)C(=O)N[C@H](C(=O)N[C@@H](CC(=O)O)C(=O)N[C@@H](Cc1ccc(O)cc1)C(=O)N[C@@H](Cc1ccc(OP(=O)(O)O)cc1)C(=O)N[C@@H](CCCCN)C(=O)N[C@@H](CCCCN)C(=O)N[C@H](C(=O)N[C@H](C(=O)N[C@@H](CC(N)=O)C(=O)NCC(=O)N[C@@H](CCCNC(=N)N)C(=O)N[C@@H](CC(=O)O)C(=O)O)[C@@H](C)O)[C@@H](C)O)[C@@H](C)CC has a Kd of 1080 nM (GRB2-related adapter protein 2, SH2 domain (GRAP2, Homo sapiens, UniProt O75791); binding).
The Kd of CCCC[C@@H]1NC(=O)[C@H](Cc2ccc(O)cc2)NC(=O)[C@@H]2CCCN2C(=O)[C@H](CC(=O)O)NC(=O)[C@H](C)NC(=O)[C@H](Cc2ccccc2)NC(=O)[C@@H]2CSCCC(=O)N3CN(CN(C3)C(=O)CCSC[C@@H](C(=O)N[C@@H](C)C(N)=O)NC1=O)C(=O)CCSC[C@H](NC(C)=O)C(=O)N[C@@H](CC(C)(C)C)C(=O)N1CCC[C@H]1C(=O)N[C@@H](CCC(=O)O)C(=O)N[C@H](CCCCNC(=O)CCc1cn(CCOCCOCCOCCN(CCOCCOCCOCCC(=O)N[C@H]3CSCCC(=O)N4CN5CN(C4)C(=O)CCSC[C@H](NC(=O)[C@@H](CC(=O)O)NC(=O)[C@H](Cc4cccc6ccccc46)NC(=O)[C@@H]4CCCN4C3=O)C(=O)N[C@@H](CCSC)C(=O)N[C@@H](CCCCNC(=N)N)C(=O)N[C@@H](CC(=O)O)C(=O)N[C@@H](Cc3c[nH]c4ccccc34)C(=O)N[C@@H](CO)C(=O)N[C@@H]([C@@H](C)O)C(=O)N3CCC[C@H]3C(=O)N3C[C@H](O)C[C@H]3C(=O)N[C@@H](Cc3c[nH]c4ccccc34)C(=O)N[C@H](C(N)=O)CSCCC5=O)CCOCCOCCOCCn3cc(CCC(=O)NCCCC[C@H]4NC(=O)[C@H](CCC(=O)O)NC(=O)[C@@H]5CCCN5C(=O)[C@H](CC(C)(C)C)NC(=O)[C@@H](NC(C)=O)CSCCC(=O)N5CN6CN(C5)C(=O)CCSC[C@H](NC(=O)[C@H](Cc5ccc(O)cc5)NC(=O)[C@@H]5CCCN5C4=O)C(=O)N[C@@H](Cc4ccccc4)C(=O)N[C@@H](C)C(=O)N[C@@H](CC(=O)O)C(=O)N4CCC[C@H]4C(=O)N[C@@H](Cc4ccc(O)cc4)C(=O)N[C@@H](CCCC)C(=O)N[C@H](C(=O)N[C@@H](C)C(N)=O)CSCCC6=O)nn3)nn1)C(=O)N1CCC[C@H]1C(=O)N[C@@H](Cc1ccc(O)cc1)C(=O)N2 is reported as 5.1 nM (Nectin-4 (Homo sapiens, UniProt Q96NY8); binding, SPR).
CC(C)(C)C(=O)OCOP(=O)(OCOC(=O)C(C)(C)C)C1CCCN(O)C1=O (stereo not shown) has a log TGI of -5.08 log M (Hs-578T).
For CCCc1cc2cc(-n3nc(C4CCC4)c4c3CC(C)(C)CC4=O)cc(N3CCC(O)CC3)c2c(=O)[nH]1, the Kd was 2800 nM (HSP90AB1; fluorescence polarization; 24 h, 4 °C, with: FITC-geldanamycin tracer).

A few entries again:
The Kd of Nc1ncnc2c1ncn2[C@@H]1O[C@H](C[C@@H](N)CC[C@H](N)C(=O)O)[C@@H](O)[C@H]1O is reported as 884 ± 61.6 nM (O-methyltransferase (Sorghum bicolor, UniProt A0A1B6PFV1, W279A); isothermal titration calorimetry; APO).
